Measured values gathered from unrelated publications.
Each numbered part is a random draw from the data of one study; scales do not carry over between parts.

Block 1 — method: protein-binding microarray; form: double-stranded DNA, one strand shown; medium: in vitro; tested at: 250 nM; setting: 60-bp whole probe; with: salmon DNA 0.4 mg/ml; baseline: random background probes; direction: higher = stronger binding; all sequences stand within: GCCTAGCAC … GTCTTGATTCGCTTGACGCTGCTG
Target: Interferon regulatory factor 7, full length, phosphomimetic (IRF7, Homo sapiens, UniProt Q92985, residues 1-503, S101K/S471D/S472D/S475D/S476D/S477D/S483D/S484D/S487D)
Chain of UniProt Q92985 (whole entry, unmodified, looked up): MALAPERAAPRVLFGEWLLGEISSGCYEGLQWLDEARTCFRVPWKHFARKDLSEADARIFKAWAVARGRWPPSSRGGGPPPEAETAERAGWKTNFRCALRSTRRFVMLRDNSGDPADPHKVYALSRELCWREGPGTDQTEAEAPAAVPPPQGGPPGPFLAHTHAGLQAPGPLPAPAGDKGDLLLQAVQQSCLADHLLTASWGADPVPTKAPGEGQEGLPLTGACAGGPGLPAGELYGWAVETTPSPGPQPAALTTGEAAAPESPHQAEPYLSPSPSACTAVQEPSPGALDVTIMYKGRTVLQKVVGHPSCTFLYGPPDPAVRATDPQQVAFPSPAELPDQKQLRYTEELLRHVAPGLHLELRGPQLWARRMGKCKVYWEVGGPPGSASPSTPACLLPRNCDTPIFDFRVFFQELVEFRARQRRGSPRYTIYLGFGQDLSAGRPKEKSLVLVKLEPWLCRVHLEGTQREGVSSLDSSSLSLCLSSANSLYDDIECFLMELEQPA
Oligonucleotide	log fluorescence
TTAGATATCAGACTGAATTAGTGCTAG	-0.0161 z-score
GACGTTATCAGTCTCGAGACGTGCTAG	0.688 z-score
GACGGTATTCTTATCCTGACGTGCTAG	-0.194 z-score
TTAGGTTTCGGACTTGGTTAGTGCTAG	3.94 z-score
CACGGTCTCGGTTTCGGGACGTGCTAG	7.97 z-score
GACGGACTGCTTATCCTGCCGTGCTAG	-0.516 z-score
TTAGGTCTCGAACTGGGTTAGTGCTAG	0.474 z-score
TGAGGACTGGACTTTCGGTTAGTGCTA	0.218 z-score
TCAGTCTTCCCTTTTAAACTGTGCTAG	1.05 z-score
GACGATCTAAGACTGGAGACGTGCTAG	-0.248 z-score
TTACAACTGGGGTATCGATTAGTGCTA	0.225 z-score
TCATCTCTCTATTCAGAACTGTGCTAG	0.892 z-score
TCAGGAAACCGGAAAGGCACTGTGCTA	-0.343 z-score
GACGGACTGGGATTCGGGACGTGCTAG	-0.258 z-score
GACGCACTGGACTTTCGGGACGTGCTA	-0.296 z-score
TGTGGTCTGTTTCTGATATGGTGCTAG	0.502 z-score
GGCGAACTGGGGACTGGAGACGTGCTA	-1.05 z-score
TTAGATTTCCGGACTGGATTAGTGCTA	0.188 z-score

Block 2 — method: universal PBM; form: double-stranded DNA, one strand shown; medium: in vitro; tested at: not given; direction: higher = stronger binding
Target: Sal-like protein 4, full length isoform B (SALL4, Homo sapiens, UniProt Q9UJQ4-2, residues 1-616)
Setting: 8-mer, flanks averaged, mean of replicates
Oligonucleotide	E-score
CTCCCGAC	-0.177
AGTTGAAA	0.174
GATCTGAA	-0.105
AACAACCA	0.183
CGTACTGA	0.0867
ACCTGGGC	-0.187
AGTGTCAA	-0.00495
GCTGCCGA	-0.293
CCCAAACC	-0.183
CCTACATA	0.0459
CTCCTAAG	-0.183
CTTTGTCC	-0.0389
CTCTACCC	-0.132
CTATACGC	0.0178
GTACTGGA	-0.026
GACGATAA	0.176
ACAGACCA	-0.095
AATTGTTC	0.301
AGAAAAGA	0.151
AAGAACAG	-0.042
GATTAATC	0.209
GTCATAAC	0.25
GCGGTTCA	-0.203
ACCTCATA	0.106
AGAATACA	0.192

Block 3 — method: protein binding microarray; form: double-stranded DNA, one strand shown; medium: in vitro; tested at: not given; baseline: not given; direction: higher = stronger binding
Target: Histone acetyltransferase KAT6A, winged helix 1, GST fusion (KAT6A, Homo sapiens, UniProt Q92794, residues 1-85)
Setting: 8-mer, flanks averaged, mean of 2 arrays, mostly near background
Residues (chain): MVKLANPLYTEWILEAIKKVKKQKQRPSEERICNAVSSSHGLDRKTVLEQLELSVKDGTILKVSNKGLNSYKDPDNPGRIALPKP
Oligonucleotide	E-score
ATCATGAA	-0.163
AATAGAGG	-0.0785
AAGCTTAA	-0.0911
CAATTCTA	-0.28
ATCAGAAA	-0.174
GACTATAA	-0.0899
AGAAATAT	-0.0127
AGCCCGTA	0.263
CACAGTTA	-0.0324
ATAAGTCA	-0.218
AGGTGTGC	-0.144
ACATCGTA	0.0409
GTACAGTA	0.0369
GTTGTAGA	-0.0648
CTCATATA	-0.102
AACCCGGT	0.299
TCCAGTAA	-0.102
GAAACCAA	-0.121
AGCGTCTG	0.135
ATTTTAGC	-0.000815
ATCAGATG	-0.134
CCTGCTTA	-0.115

Block 4 — method: RNA Bind-n-Seq; form: RNA; medium: in vitro; tested at: not given; baseline: input RNA pool; direction: higher = stronger binding
Target: RING finger protein unkempt homolog, zinc fingers 1-6, GST-SBP tag (UNK, Homo sapiens, UniProt Q9C0B0, residues 30-357)
Chain of UniProt Q9C0B0 (30-357, looked up): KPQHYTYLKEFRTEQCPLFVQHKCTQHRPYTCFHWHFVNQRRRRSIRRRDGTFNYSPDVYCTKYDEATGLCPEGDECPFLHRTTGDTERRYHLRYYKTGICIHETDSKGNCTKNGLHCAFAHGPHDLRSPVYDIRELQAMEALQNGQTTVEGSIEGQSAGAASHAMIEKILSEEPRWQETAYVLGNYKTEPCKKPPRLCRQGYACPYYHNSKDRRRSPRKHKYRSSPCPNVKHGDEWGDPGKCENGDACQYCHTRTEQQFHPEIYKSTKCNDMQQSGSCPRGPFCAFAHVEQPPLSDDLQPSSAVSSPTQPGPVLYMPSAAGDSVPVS
Setting: RNA with constant flanks, human and mouse sites, ends assumed
All sequences stand within: GGGAGUUCUACAGUCCGACGAUC … CAACAGAGGAUUGAGCAUCA
Oligonucleotide	bound/input enrichment
UCAAAAUUCUUCUCUGCCUACAAAAGUCAUUUCCGGAAUGUCCAUAGUGAAGACUUUGAAAAUAGGAUUCUCCUUAACUGCCCUUACUGUACCUUCAAUGCAGAUAAAAAGACUUUGGAA	0.19 ratio
CACAGUGAACGAGACAUGAGAAAUACACUGGAAAAGUUCGCUGCAAGCAUCCAGGGCUUAUCAGAGCAAGAAGAGUAUCUGUGUGUACAAAUUAAAGAACUGGAAGCUAACGUUCUUACU	0.127 ratio
GGUAAGCUAAUCGCGGUGAUUGGAGACGAGGACACGGUGACUGGUUUCCUGUUGGGCGGCAUAGGGGAGCUAAACAAGAACCGCCACCCUAAUUUCCUGGUAGUGGAGAAGGAUACCACC	0.243 ratio
GAGGAUUAUGACAGAUUACGACCGCUGAGUUAUCCACAAACAGAUGUAUUUCUAGUCUGUUUUUCAGUGGUCUCUCCAUCUUCAUUUGAAAACGUGAAAGAAAAGUGGGUGCCUGAGAUA	0.282 ratio
CAAAAGUGAGGUUUUGUAGUGGGACCAGAAAUUACUAAGCCCACACCCCCUCCCUAACCCCAAUUCUGCUGCAUGGGAAGUUCUCCACCUGCUGCCAAGGCAGAGCUCCUGGUCUCCCAU	0.225 ratio
UUUCCCGGAAACAGUACCCAGUACAACAUCCUAGAAGGACUGGAGAAACUCAAACAUCUAGAUUUCCUAAAGCAGCCACUGGCCACCCAAAAAGAUCUCACUGGCCAGGUGCCCACCCCC	1.88 ratio
UUCAGCCCCCUGAAAGCCUCUGGAGAUGGAGAAUCUCUGGAUGAAGAUUCCGAGUUCACCUUAGCCUCUGACUUUGAAAUUGGGCACUUUUUUCGUGAGCGCAUCGUGCCACGGGCUGUC	0.109 ratio
CCUCCCCGGGCCACCCAGCCCGCCCAACUCCCAGCGGAGAGCAAGGUUUUCUUCUGUUUUCAUAGCCAGCCAGAACAAUGUUCUACGCACAUUUUGUUCUCAGUAAAAGAGGGCCUCUGG	0.401 ratio
